Measurements gathered from unrelated publications.
Every numbered part comes from another study and shows a few of its results, in no order. Substitutions count along the parent as printed.

Block 1
Substance: PhoQ, residues 284 288 289 292 302 303 SIHMAM
Technique: Sort-seq
Refers to: YFP reporter
Medium: E. coli
Setting: PhoQ-PhoP variant library
With: 10 µM Mg2+
Baseline: high Mg2+ state
Direction: higher = stronger signaling
Endpoint: fold induction
target = PhoP, residues 12 14 15 18 19 TQAML (Escherichia coli, UniProt P23836); value = 16.5
target = PhoP, residues 12 14 15 18 19 NQCAL (Escherichia coli, UniProt P23836); value = 9.31
target = PhoP, residues 12 14 15 18 19 LHTVL (Escherichia coli, UniProt P23836); value = 0.777

Block 2
Target: RING finger protein unkempt homolog, zinc fingers 1-6, GST-SBP tag (UNK, Homo sapiens, UniProt Q9C0B0, residues 30-357)
Technique: RNA Bind-n-Seq
Molecule type: RNA
Medium: in vitro
Concentration: not given
Setting: RNA with constant flanks, human and mouse sites, ends assumed
Baseline: input RNA pool
Direction: higher = stronger binding
Endpoint: bound/input enrichment
All sequences stand within: GGGAGUUCUACAGUCCGACGAUC … CAACAGAGGAUUGAGCAUCA
Residues (chain): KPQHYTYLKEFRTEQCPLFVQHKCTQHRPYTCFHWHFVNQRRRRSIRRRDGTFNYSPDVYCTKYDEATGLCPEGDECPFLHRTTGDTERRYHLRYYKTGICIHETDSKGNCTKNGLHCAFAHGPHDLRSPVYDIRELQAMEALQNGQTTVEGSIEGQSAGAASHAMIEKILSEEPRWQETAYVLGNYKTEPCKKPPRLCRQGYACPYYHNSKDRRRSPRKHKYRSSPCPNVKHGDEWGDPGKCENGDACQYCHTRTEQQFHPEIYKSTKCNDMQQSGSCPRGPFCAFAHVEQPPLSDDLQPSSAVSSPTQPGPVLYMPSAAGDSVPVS
Sequence = GGCAUCGACCUGCUUCGCACCUACCUGUGGCGCUGCCAGUUCCUUUUACCCUUCGUCAGCUUGGGCUUGAUGUGCUUUGGGGCGUUGAUUGGCCUCUGUGCCUGUAUCUGCCGCAGCCUG; value = 0.113 ratio
Sequence = CCAUUUGUGAUCUCCCGCUCGACCUUUGCUGGCCACGGCCGAUACGCCGGCCACUGGACGGGGGACGUGUGGAGCUCCUGGGAGCAGCUCGCCUCCUCCGUGCCAGAAAUCCUGCAGUUU; value = 0.0633 ratio
Sequence = GUGGUGACUGAGUUCCCUUUAUCAAACCCUUCAGUGGGCACAAAAUUGAGUGCUUGAUUUUAGGUUUUAUUUUUUUAUGAAUGUCCAAAUCUGUGUUUCCCCCUGCCCUCCCAGACUGUG; value = 9 ratio
Sequence = AACUAAGCACAGAAGAGUUGGCGUCAUCUUAAAAAUACCAAAUAACAGAAGAUCGCAUUGCAGAUGAUAUCAGGAUGUGGUUUCCAGCUUUGCCUGAGGGAAUUCCAACAUGAGAUUAUG; value = 0.154 ratio
Sequence = AUUCAUUUUUAAUUUUAAUUUUAUUUUAUACAAUGUGUAGACAGUUCCCUGUUCUCUGCAUUUAGAAGUAUACACAAUAUAAAUCUGUUAAUUCUGUAAGUAAUUUUUAUAAUUAUGAUG; value = 33.6 ratio
Sequence = AGUAAGCGGGAUUUUAUGCUGAUCACAAACAAAUCCUUGAAAGAAGAAGAUGGAGAAGAAAUAGUUACCUAUGAUCGAGUAUACCAUGCUGUGUCUGUUAUGCGGCAAAGCCGAAGAUAC; value = 0.628 ratio

Block 3
Target: ABI1, truncated, D143A, DHFR fusion (Arabidopsis thaliana)
Technique: DHFR PCA, deep sequencing
Medium: yeast
Setting: methotrexate growth selection, single substitutions
With: (+)-ABA 710 µM
Baseline: wild-type fitted maximum
Direction: higher = stronger binding
Endpoint: relative binding score
Parent: PYL1, truncated, DHFR fusion (Arabidopsis thaliana); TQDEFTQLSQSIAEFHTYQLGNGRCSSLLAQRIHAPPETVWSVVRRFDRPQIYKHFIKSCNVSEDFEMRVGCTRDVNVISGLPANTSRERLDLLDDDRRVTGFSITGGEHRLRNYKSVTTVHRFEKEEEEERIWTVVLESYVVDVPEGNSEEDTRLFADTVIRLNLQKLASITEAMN
Change = A175T; value = 96.5%
Change = P37I; value = 96.3%
Change = Q2V; value = 110%
Change = E109N; value = 117%
Change = E64N; value = 101%
Change = R132E; value = 122%
Change = L8M; value = 96.9%
Change = S80Q; value = 75.3%
Change = V76D; value = -9.08%
Change = K168P; value = 6.57%
Change = E151I; value = 100%
Change = P50E; value = -7.7%
Change = Y141G; value = -6.54%
Change = I52D; value = 103%
Change = G107S; value = 101%
Change = L20M; value = 98.5%

Block 4
Target: Sal-like protein 4, full length isoform A (SALL4, Homo sapiens, UniProt Q9UJQ4, residues 1-1053)
UniProt Q9UJQ4, sequence (whole entry, looked up): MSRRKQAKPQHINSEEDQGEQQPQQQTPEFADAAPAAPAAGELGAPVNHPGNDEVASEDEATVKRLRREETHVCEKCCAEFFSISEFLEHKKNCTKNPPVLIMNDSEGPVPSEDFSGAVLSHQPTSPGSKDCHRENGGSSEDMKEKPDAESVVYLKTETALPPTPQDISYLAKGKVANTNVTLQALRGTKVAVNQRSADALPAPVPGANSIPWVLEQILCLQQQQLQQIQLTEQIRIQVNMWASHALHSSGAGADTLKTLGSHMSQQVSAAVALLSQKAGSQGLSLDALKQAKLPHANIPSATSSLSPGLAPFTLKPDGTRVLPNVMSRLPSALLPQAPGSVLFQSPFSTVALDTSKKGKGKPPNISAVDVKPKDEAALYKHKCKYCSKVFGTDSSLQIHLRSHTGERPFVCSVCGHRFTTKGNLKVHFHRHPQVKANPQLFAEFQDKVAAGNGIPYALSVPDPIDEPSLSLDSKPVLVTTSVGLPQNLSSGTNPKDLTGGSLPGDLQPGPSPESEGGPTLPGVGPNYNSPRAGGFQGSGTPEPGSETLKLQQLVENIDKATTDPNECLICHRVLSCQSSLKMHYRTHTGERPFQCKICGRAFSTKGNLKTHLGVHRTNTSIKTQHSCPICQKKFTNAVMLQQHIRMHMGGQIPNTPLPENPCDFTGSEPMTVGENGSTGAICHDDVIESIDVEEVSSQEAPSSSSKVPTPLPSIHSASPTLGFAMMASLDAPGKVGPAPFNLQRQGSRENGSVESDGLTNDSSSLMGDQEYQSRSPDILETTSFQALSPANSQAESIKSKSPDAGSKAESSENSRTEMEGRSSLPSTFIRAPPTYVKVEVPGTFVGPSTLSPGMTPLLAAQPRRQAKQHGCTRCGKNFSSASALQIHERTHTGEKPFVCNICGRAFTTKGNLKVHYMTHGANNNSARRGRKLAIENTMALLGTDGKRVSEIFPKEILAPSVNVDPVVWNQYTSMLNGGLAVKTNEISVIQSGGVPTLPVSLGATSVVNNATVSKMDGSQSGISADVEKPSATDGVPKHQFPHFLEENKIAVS
Technique: universal PBM
Molecule type: double-stranded DNA, one strand shown
Medium: in vitro
Concentration: 600 nM
Setting: 8-mer, flanks averaged, mean of replicates
Direction: higher = stronger binding
Endpoint: E-score
Sequence = ACTCAACG; value = -0.0411
Sequence = GGACGGCA; value = -0.173
Sequence = TCGTTCCA; value = 0.103
Sequence = AGCGGGCA; value = -0.276
Sequence = TAATCAGA; value = 0.242
Sequence = AAAGAGGA; value = -0.0748
Sequence = ATCTCCCG; value = -0.165
Sequence = AACGGAGA; value = -0.0121
Sequence = CTAAGGAC; value = -0.0209
Sequence = CTGATAAC; value = 0.156
Sequence = ACTAGGGC; value = -0.157
Sequence = ACCTTTAT; value = 0.168
Sequence = AGAGCGGC; value = -0.158
Sequence = GCAACAGA; value = 0.0564
Sequence = CCATAAGA; value = 0.153
Sequence = CGACATAA; value = 0.199
Sequence = GGGAGCAA; value = -0.194
Sequence = CTAAGGTC; value = -0.0236
Sequence = ACTTAGGC; value = -0.153
Sequence = CTTTCGCA; value = -0.0425

Block 5
Target: Interferon regulatory factor 3, full length, phosphomimetic (IRF3, Homo sapiens, UniProt Q14653, residues 1-427, S386D/S396D/S398D/S402D/T404D/S405D)
Technique: protein-binding microarray
Molecule type: double-stranded DNA, one strand shown
Medium: in vitro
Concentration: 2540 nM top
Setting: 60-bp whole probe
With: salmon DNA 0.4 mg/ml
Baseline: random background probes
Direction: higher = stronger binding
Endpoint: fitted relative affinity
All sequences stand within: GCCTAGCAC … GTCTTGATTCGCTTGACGCTGCTG
Target sequence (chain): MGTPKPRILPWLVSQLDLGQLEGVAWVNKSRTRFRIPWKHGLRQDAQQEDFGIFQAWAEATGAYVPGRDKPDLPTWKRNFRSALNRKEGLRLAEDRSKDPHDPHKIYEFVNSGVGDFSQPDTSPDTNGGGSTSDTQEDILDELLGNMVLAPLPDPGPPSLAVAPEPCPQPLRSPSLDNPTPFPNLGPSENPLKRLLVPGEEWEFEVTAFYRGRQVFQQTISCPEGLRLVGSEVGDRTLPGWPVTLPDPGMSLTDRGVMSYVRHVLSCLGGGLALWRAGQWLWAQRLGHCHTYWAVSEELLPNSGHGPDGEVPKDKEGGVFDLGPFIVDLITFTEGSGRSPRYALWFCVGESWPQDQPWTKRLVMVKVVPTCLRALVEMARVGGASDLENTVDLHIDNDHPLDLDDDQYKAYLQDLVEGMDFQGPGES
Sequence = ATGGCTTTGCCTTTTGCTTTGTGCTAG; value = -0.194 z-score
Sequence = GACTGTTTCCTACTGCTGACGTGCTAG; value = 4.4 z-score
Sequence = TTTTTTTTTTTTTTTTACTTGTGCTAG; value = 1.61 z-score
Sequence = GACGATATCGGGACTGGTGACGTGCTA; value = 0.000221 z-score
Sequence = TCATATTTATGTATACAACTGTGCTAG; value = 0.946 z-score
Sequence = GCCGATATCGGGACTGGAGACGTGCTA; value = 0.713 z-score
Sequence = TGGGAAATTCCTCTGAATAGGTGCTAG; value = 0.314 z-score
Sequence = TTAGGTTACGGACTGGGTTAGTGCTAG; value = 0.115 z-score
Sequence = ATACTGAGAAAGCACTGGACGTGCTAG; value = -0.145 z-score
Sequence = AACGGACTGGGGACTGGGGACGTGCTA; value = -0.892 z-score
Sequence = GACGAACTGGGGTTCCGAGACGTGCTA; value = -0.383 z-score
Sequence = CCAAACCTGTGCGCCGTGCCGTGCTAG; value = 0.255 z-score
Sequence = GAAGATGTGTATATGACAATGTGCTAG; value = -0.461 z-score
Sequence = TTAGGTTTCAGACTGGGTTAGTGCTAG; value = 2.19 z-score
Sequence = TTTGATCTCAGTCTCGATTAGTGCTAG; value = 0.722 z-score
Sequence = TCAAAAATGCCCTTTTGGACTGTGCTA; value = 1.24 z-score
Sequence = AAGTTTTTATTTTCTGAATGGTGCTAG; value = 3.28 z-score
Sequence = AGCCGAACAGCAATCGGATGGTGCTAG; value = -0.00515 z-score

Block 6
Target: Histone acetyltransferase KAT6A, winged helix 1, GST fusion (KAT6A, Homo sapiens, UniProt Q92794, residues 1-85)
Technique: protein binding microarray
Molecule type: double-stranded DNA, one strand shown
Medium: in vitro
Concentration: not given
Setting: 8-mer, flanks averaged, mean of 2 arrays, mostly near background
Baseline: not given
Direction: higher = stronger binding
Endpoint: E-score
Target sequence (chain): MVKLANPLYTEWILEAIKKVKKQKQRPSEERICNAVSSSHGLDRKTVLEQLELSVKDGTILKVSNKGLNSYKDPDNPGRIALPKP
Sequence = AGCCCACA; value = -0.288
Sequence = GATATTGC; value = 0.0176
Sequence = AACTCCGT; value = 0.223
Sequence = AAAAGGAG; value = -0.101
Sequence = AGATTGGC; value = -0.169
Sequence = GAATTCGC; value = 0.113
Sequence = CTACAACA; value = -0.137
Sequence = ATTCACTC; value = -0.169
Sequence = CCTGCATC; value = -0.353
Sequence = ATCCTGTC; value = -0.1
Sequence = ACCGTTCA; value = 0.0861
Sequence = CTAATGTC; value = 0.0106
Sequence = CACTAAAA; value = -0.158
Sequence = AGTCTCGC; value = -0.0621
Sequence = CAAAGTTC; value = -0.235
Sequence = ACAGTACT; value = -0.222
Sequence = TGGTATAA; value = -0.171
Sequence = CCGAGACA; value = -0.0273
Sequence = ATTCAATG; value = -0.127
Sequence = CATGGCGA; value = -0.0119
Sequence = CGTGATCA; value = 0.00703
Sequence = GGGTGTCA; value = -0.0118
Sequence = ATAGCGGA; value = 0.242
Sequence = TCGCTTAA; value = 0.111
Sequence = CCGAGGGA; value = -0.0301

Excerpt of the above (block 6):
Sequence = CCGAGACA; value = -0.0273
Sequence = ATTCAATG; value = -0.127
Sequence = CATGGCGA; value = -0.0119
Sequence = CGTGATCA; value = 0.00703
Sequence = GGGTGTCA; value = -0.0118
